Experimental data pooled from the literature.
Compare with care: the assays were run in different laboratories. Several values in a cell are separate wells, animals, samples, runs or records. ± gives the spread as reported.
CASP7: Caspase-7 (CASP7, Homo sapiens, UniProt P55210)
Gria2: Glutamate receptor 2 (Gria2, Rattus norvegicus, UniProt P19491)
CCT8: T-complex protein 1 subunit theta (CCT8, Homo sapiens, UniProt P50990)
T1: riboswitch RNA yjdF aptamer domain (Bacillus subtilis); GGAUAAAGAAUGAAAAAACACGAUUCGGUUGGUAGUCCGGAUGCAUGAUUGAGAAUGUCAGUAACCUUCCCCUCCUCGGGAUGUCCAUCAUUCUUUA

| SMILES | target | assay | test system | conditions | scale | measurement | result |
| --- | --- | --- | --- | --- | --- | --- | --- |
| CC[C@H](C)[C@@H]1NC(=O)[C@H](Cc2ccccc2)NC(=O)[C@H](CCC(=O)O)NC(=O)[C@H](CCCNC(=N)N)NC(=O)CNC(=O)[C@@H](NC(=O)[C@H](CC(C)C)NC(=O)[C@H](CCCNC(=N)N)NC(=O)[C@@H](NC(=O)CNC(=O)[C@H](Cc2ccc(O)cc2)NC(=O)[C@@H]2CCCN2C(=O)[C@H](C)NC(=O)[C@H](C)NC(=O)[C@@H](N)CCCNC(=N)N)C(C)C)CSSC[C@@H]2NC(=O)[C@@H](NC(=O)[C@H](CO)NC(=O)[C@H](CO)NC(=O)[C@H](CO)NC(=O)[C@H](CC(C)C)NC(=O)CNC(=O)[C@H](C)NC(=O)[C@H](CC(C)C)NC(=O)[C@@H](NC(=O)[C@@H](N)CC(=O)O)C(C)C)CSSC[C@H](NC(=O)CNC(=O)[C@H](Cc3c[nH]c4ccccc34)NC(=O)[C@H](CCCCN)NC2=O)C(=O)N[C@@H](CO)C(=O)N[C@@H](CCCCN)C(=O)N[C@@H](CO)C(=O)N[C@@H](CCC(=O)O)C(=O)N[C@@H]([C@@H](C)CC)C(=O)N[C@@H](CO)C(=O)N[C@@H](CO)C(=O)N[C@@H](CC(C)C)C(=O)N[C@H](C(=O)O)CSSC[C@@H](C(=O)NCC(=O)NCC(=O)N[C@@H](CO)C(=O)N[C@@H](CCCNC(=N)N)C(=O)N[C@@H](Cc2c[nH]c3ccccc23)C(=O)O)NC(=O)[C@H]([C@@H](C)O)NC(=O)[C@H](Cc2ccccc2)NC(=O)[C@H]([C@@H](C)CC)NC(=O)[C@H](C(C)C)NC(=O)[C@H](C)NC(=O)[C@H](CCCNC(=N)N)NC1=O | RXFP4 (Homo sapiens, UniProt Q8TDU9, Q287A) | – | – | Q287A mutant | reference: wild type | Δemax | -59.5% and -72.1% and -65.7% |
| C/C1=C\CC/C(C)=C/CC(C)(C)/C=C/C1 | SCN9A (Homo sapiens, UniProt Q15858) | whole-cell patch clamp | HEK293 | 100 µM, 5 min, prolonged-opening voltage protocol | reference: before compound | current relative to initial | 105 ± 4% |
| CC(C)Oc1cc(Cl)ccc1CNc1cc(-c2ccccc2)nc2ncnn12 | GPR3 (Homo sapiens, UniProt P46089, L136A) | cAMP level, cAMP GloSensor | – | 300 nM | higher = more cAMP | cAMP luminescence | 47200 a.u. and 49800 a.u. and 36100 a.u. and 53400 a.u. |
| CC(=O)N[C@@H](CC(C)C)C(=O)N[C@@H](CCC(N)=O)C(=O)N[C@@H](CO)C(=O)N[C@@H](CC(=O)O)C(=O)COC(=O)c1c(C)cccc1C | CASP7 | enzyme activity, inhibitor | – | – | – | kinact/KI | 2000 M⁻¹ s⁻¹ |
| COC(=O)Cc1cc2c(cc1C(=O)c1ccccc1)OCO2 | Gria2 | glutamate-evoked current, whole-cell patch clamp | HEK-293T | concentration not given, weighted tau, 1 ms pulse, with: glutamate | – | deactivation time constant | 2.2 ± 0.1 ms |
| CCCCCC=CC=C1C(=O)C=CC1CC=CCCCC(=O)O (centres unmarked) | CCT8 | competitive isoTOP-ABPP | proteome, soluble, MDA-MB-231 | 100 µM, 60 min, with: iodoacetamide probe | reference: DMSO over compound-treated, higher = stronger cysteine blockade | isoTOP-ABPP competition ratio | 7.6 |
| O=C(O)Cc1cc2c(cc1C(=O)c1ccc(Cl)cc1Cl)OCO2 | Gria2 | whole-cell patch clamp | HEK-293T | concentration not given, with: glutamate | – | desensitization time constant | 0.5 ± 0.05 ms |
| O=C1c2sc(-c3ccc(N4CCC(CO)CC4)nc3F)nc2CCN1c1cccnc1 | TAR DNA-binding protein 43, aggregated (TARDBP, Homo sapiens, UniProt Q13148) | binding, surface plasmon resonance | brain-derived TDP-43 aggregates | 2.34 nM | – | SPR response | 0.92 RU |
| C=CC(=O)N1CCCC(n2c(=O)c3ncccc3n(Cc3ccc(Oc4ccccc4)cc3)c2=O)C1 (centres unmarked) | CCT8 | thermal proteome profiling | cell proteome | treated | – | melting temperature | 51.1 °C and 50.3 °C |
| CC(=O)N1c2ccc(-c3ccc(CNC(=O)c4cn5cc(-c6cnc(N)nc6)nc(N6CCOCC6)c5n4)cc3)cc2CC[C@@H]1C | CECR2 (Homo sapiens, UniProt Q9BXF3) | binding, competition with immobilised ligand | – | 10 µM | – | remaining binding | 0.7% |
| N#CN1CC[C@H](C(=O)Nc2nc3c(s2)CN(C(=O)Cn2cc(CNC(=O)CCCC[C@@H]4SC[C@@H]5NC(=O)N[C@@H]54)nn2)CC3)C1 | TUBB (Homo sapiens, UniProt P07437) | probe binding, affinity probe, neutravidin pull-down LC-MS/MS | HEK293T, cell lysate | 5 µM, 1 h, mean of three replicates, unit not given | higher = more pulled down | iBAQ abundance | 1.73e+08 |
| CNc1ccc(-c2n[nH]c3c2CCN(C(=O)c2ccccc2)C3)cc1 | human kinase panel | binding, KINOMEscan | – | 10000 nM, %Ctrl below 1 | – | number of kinases hit | 0 |
| CC(O)(c1cccc(F)c1)c1cn(C2OC(CO)C(O)C(O)C2O)nn1 (centres unmarked) | MDM2 (Homo sapiens, UniProt Q00987) | thermal stability, DSF | – | 30 µM | – | ΔTm | 4.77 °C |
| CCOC(=O)C(CC)(CCCSCCOCCOCCOCCN)NC(=O)c1ccc(C2CC2)c(Cc2ccc(F)cc2)n1 (centres unmarked) | CNR2 (Homo sapiens, UniProt P34972) | radioligand binding | – | – | reference: CB1 over CB2 (human) | Ki ratio | 41 |
| Cc1ccc(C)c(-c2cc(NC(=O)c3cncc(Br)c3)[nH]n2)c1 | human kinase panel | binding, KINOMEscan | – | 10000 nM, %Ctrl below 1 | – | number of kinases hit | 0 |
| CCn1cc(-c2cccc(C(F)(F)F)c2)c2sc(C(=N)NC3CCS(=O)(=O)CC3)cc2c1=O | PHIP, BD2 (Homo sapiens, UniProt Q8WWQ0) | – | – | – | – | ΔTm | -0.8 °C |
| CC(=O)N[C@@H](CC(=O)O)C(=O)N[C@@H](CCC(=O)O)C(=O)N[C@H](C(=O)N[C@@H](CC(=O)O)C(=O)COC(=O)c1c(C)cccc1C)[C@@H](C)OCc1ccccc1 | CASP7 | enzyme activity, inhibitor | – | – | – | kinact/KI | 678000 M⁻¹ s⁻¹ |
| CCCCCC(O)/C=C/C=O (centres unmarked) | CKB (Homo sapiens, UniProt P12277) | acylphosphate-ATP probe SILAC-ABPP | ZAK-transfected HEK293T | 100 µM, with: acylphosphate-ATP probe | reference: DMSO over compound-treated | probe labelling ratio | 0.65 |
| COC(=O)Cc1cc2c(cc1C(=O)c1ccccc1Br)OCO2 | Gria2 | glutamate-evoked current, whole-cell patch clamp | HEK-293T | concentration not given, pH 7.4, holding potential -60 mV, with: 10 mM glutamate | – | current amplitude | 591 ± 42 pA |
| CN(C)c1ccc2c(c1)C(=O)N(CCc1ccc(S(N)(=O)=O)cc1)C2=O | CA2 (Bos taurus, UniProt P00921) | binding | – | – | – | emission maximum | 539 nm |
| Clc1ccc(NN=C(c2ccccc2)c2ccccn2)nc1 | KDM4A (Homo sapiens, UniProt O75164) | demethylase activity, inhibitor, 1H NMR, item: H3K9me3 peptide | – | 160 µM, single exponential fit | – | rate constant | 0.021 min⁻¹ |
| CCCCCCCC/C=C\CCCCCCCC(=O)NCCO | Trpv1 (Mus musculus, UniProt Q704Y3, S513A) | ion current, agonist, whole-cell patch clamp | – | – | reference: 3 mM 2-APB current | maximal open probability | 0.81 ± 0.16 |
| Cc1nc(-c2c[nH]c(C(=O)Nc3ncccc3O)c2)cs1 | Serine protease 1 (PRSS1, Homo sapiens, UniProt P07477) | enzyme activity, mixed inhibitor, steady-state kinetics | – | with: substrate Z-GPR-pNA | higher = weaker ES binding | alpha factor | 1.3 and 2 and ~1 |
| COc1ccc(C(OCCN2CCCC(C(=O)O)C2)(c2ccc(OC)cc2)c2ccc(OC)cc2)cc1 (centres unmarked) | SLC6A1 (Homo sapiens, UniProt P30531) | GABA transport, inhibitor, radioligand uptake | HEK293F transfected | 6.4 nM, 15 min pre, 45 min uptake, room temperature, with: [3H]-GABA 30 nM, GABA 25 µM | higher = more uptake | [3H]-GABA uptake | 4180 a.u. and 1110 a.u. and 4280 a.u. and 1520 a.u. and 1390 a.u. and 1320 a.u. and 1080 a.u. and 1070 a.u. |
| C#CCCCCNC(=O)c1ccc(N(C(=O)C=C)c2ccc(Br)cc2)cc1 | RAB1A (Homo sapiens, UniProt P62820) | mass spectrometry profiling | H460 cell lysate | 100 µM over 10 µM, UniProt P62820 | reference: high over low concentration | reactivity ratio | 1.83 |
| CC(=O)N[C@@H](Cc1ccc(I)cc1)C(=O)N[C@@H](CCC(=O)O)C(=O)N[C@H](C(=O)N[C@@H](CC(=O)O)C(=O)COC(=O)c1c(C)cccc1C)[C@@H](C)O | CASP7 | enzyme activity, inhibitor | – | – | – | kinact/KI | 51400 M⁻¹ s⁻¹ |
| CN(CCO)c1cc2sc(/C=C(\C#N)c3ccc(C#N)cc3)cc2s1 | T1, riboswitch RNA yjdF aptamer domain (Bacillus subtilis) | fluorescence titration | – | – | – | Kd | 1100 nM |
| C[C@@H]1CN(c2cc(=O)n(C)c3ccc(C#N)nc23)[C@@H](C)CN1Cc1ccc(S(=O)(=O)n2cnc(C3CC3)n2)cc1 | DGKA (Homo sapiens, UniProt P23743) | DIA global proteomics | Jurkat | 5 µM, 6 h | – | DGKα protein reduction | ~80% |
| COc1ccc(NC(=O)c2cc(-c3ccccc3)n(-c3ccccc3)n2)cc1 | Genome polyprotein, NS2B-NS3 protease (dengue virus type 2, UniProt P29990) | enzyme activity, fluorogenic AMC substrate | – | 50 µM | – | inhibition | 37% |

Repeated from above:
| SMILES | target | assay | test system | conditions | scale | measurement | result |
| --- | --- | --- | --- | --- | --- | --- | --- |
| CNc1ccc(-c2n[nH]c3c2CCN(C(=O)c2ccccc2)C3)cc1 | human kinase panel | binding, KINOMEscan | – | 10000 nM, %Ctrl below 1 | – | number of kinases hit | 0 |
| CC(=O)N1c2ccc(-c3ccc(CNC(=O)c4cn5cc(-c6cnc(N)nc6)nc(N6CCOCC6)c5n4)cc3)cc2CC[C@@H]1C | CECR2 (Homo sapiens, UniProt Q9BXF3) | binding, competition with immobilised ligand | – | 10 µM | – | remaining binding | 0.7% |
| C/C1=C\CC/C(C)=C/CC(C)(C)/C=C/C1 | SCN9A (Homo sapiens, UniProt Q15858) | whole-cell patch clamp | HEK293 | 100 µM, 5 min, prolonged-opening voltage protocol | reference: before compound | current relative to initial | 105 ± 4% |
